Assay results gathered from unrelated publications.
Each line is one published result; not all experiments were run side by side. Several values in a cell are separate wells, animals, samples, runs or records.
JAK2: Tyrosine-protein kinase JAK2 (JAK2, Homo sapiens, UniProt O60674)
Sequence of UniProt O60674 (whole entry, looked up): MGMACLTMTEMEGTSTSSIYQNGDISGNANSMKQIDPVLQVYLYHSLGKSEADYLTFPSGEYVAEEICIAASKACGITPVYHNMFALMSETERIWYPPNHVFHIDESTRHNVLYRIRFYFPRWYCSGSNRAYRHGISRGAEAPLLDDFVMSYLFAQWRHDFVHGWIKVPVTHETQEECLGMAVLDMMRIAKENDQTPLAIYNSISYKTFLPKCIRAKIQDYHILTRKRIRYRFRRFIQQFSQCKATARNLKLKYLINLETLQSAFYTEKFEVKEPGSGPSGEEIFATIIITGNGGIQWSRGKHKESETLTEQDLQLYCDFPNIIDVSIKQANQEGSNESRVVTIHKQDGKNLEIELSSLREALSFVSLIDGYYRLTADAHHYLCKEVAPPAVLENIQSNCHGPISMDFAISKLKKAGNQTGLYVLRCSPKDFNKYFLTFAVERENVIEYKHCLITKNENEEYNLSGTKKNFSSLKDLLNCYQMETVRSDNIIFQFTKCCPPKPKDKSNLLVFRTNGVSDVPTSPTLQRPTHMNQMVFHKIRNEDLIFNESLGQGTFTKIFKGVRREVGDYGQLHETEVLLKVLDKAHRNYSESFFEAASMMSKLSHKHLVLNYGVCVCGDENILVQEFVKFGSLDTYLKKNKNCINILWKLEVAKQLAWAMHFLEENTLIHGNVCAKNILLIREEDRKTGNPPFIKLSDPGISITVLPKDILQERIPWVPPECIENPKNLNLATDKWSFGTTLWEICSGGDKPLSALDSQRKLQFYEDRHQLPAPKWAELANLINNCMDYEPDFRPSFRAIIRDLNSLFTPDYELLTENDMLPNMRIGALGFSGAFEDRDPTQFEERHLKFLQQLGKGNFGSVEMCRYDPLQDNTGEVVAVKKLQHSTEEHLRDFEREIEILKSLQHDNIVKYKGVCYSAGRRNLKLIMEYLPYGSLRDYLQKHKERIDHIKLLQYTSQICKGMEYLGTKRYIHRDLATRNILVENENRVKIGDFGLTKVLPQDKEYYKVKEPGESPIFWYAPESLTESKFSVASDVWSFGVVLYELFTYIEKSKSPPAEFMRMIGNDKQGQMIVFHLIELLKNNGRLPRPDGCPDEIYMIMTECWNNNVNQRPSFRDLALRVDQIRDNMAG
JAK2 JH1: Tyrosine-protein kinase JAK2, JH1 (JAK2, Homo sapiens, UniProt O60674)

With O=C(O)CCC(=O)c1cccc(NS(=O)(=O)c2c[nH]c3ncccc23)c1 the remaining activity was 108% (JAK2; kinase activity, radiometric; 10 µM).
Cc1cnc(Nc2ccc3c(c2)CCN(C(=O)/C=C/C(=O)c2ccc(Cl)cc2)C3)nc1-c1cnn(C(C)C)c1 gave a selectivity ratio of greater than 73.2 (JAK2; ADP-Glo kinase; relative to: IC50 JAK3 over IC50 JAK2).
Cc1cnc2nc1Nc1cccc(c1)COC/C=C/COCc1cc(ccc1OCCN1CCOCC1)N2 gave an inhibition of 100% and 102% and 107% (JAK2; inhibitor, Z'-LYTE kinase; 1000 nM).
Cc1cnc(Nc2ccc3c(c2)CCN(C(=O)/C=C/CC(C)C)C3)nc1-c1cnn(C(C)C)c1 has a selectivity ratio of 0.17 (JAK2; ADP-Glo kinase; relative to: IC50 JAK1 over IC50 JAK2).
Under “activity vs control”, O=C(Cc1ccc(OCc2ccccc2)cc1)NC1(C(=O)O)CCN(C(=O)c2ccc(-c3cccc(Cl)c3)cc2)CC1 is recorded as 116% (JAK2; enzyme activity, inhibitor; 10 µM).
For CC(C)=CC1OC(C)(C)C2C=C3C(=O)C(Cl)=CC(O)C3C3C(O)C4OC4C(=O)C132 (stereo not shown), the remaining binding was 43% (JAK2 JH1; cell-free assay, competition with immobilised ligand; 10 µM).
O=C=[N][Ru-4]123([n]4c5ccc(O)cc5c5c6c(c7cc(F)c[n+]1c7c54)C(=O)NC6=O)[S+]1CC[S+]2CC[S+]3CC1 (stereo not shown) gave a remaining activity of 108% (JAK2; enzyme activity; 100 nM, human enzyme, together with: 10 µM ATP; relative to: untreated).
Cc1cnc(Nc2ccc3c(c2)CCN(C(=O)/C=C/C(=O)C2CCC(C)CC2)C3)nc1-c1cnn(C(C)C)c1 (stereo not shown) gave a selectivity ratio of greater than 14.6 (JAK2; ADP-Glo kinase; relative to: IC50 JAK1 over IC50 JAK2).
With Cc1cnc2nc1Nc1cccc(c1)COCc1cc(ccc1OCCN1CCOCC1)N2 the inhibition was 6.3% and -1.72% and -0.166% (JAK2; inhibitor, Z'-LYTE kinase; 0.05081 nM).
Under “activity vs control”, CNC(=O)C[C@H](Cc1ccc(C#N)cc1)NC(=O)c1cc(-c2ccc(CN[C@H](C)c3ccc(C)cc3)o2)ccc1Cl is recorded as 101% (JAK2; enzyme activity, inhibitor; 1 µM).
With CCN1CCN(Cc2ccc(C(=O)Nc3ccc(C)c(NCc4cnc5[nH]ccc5c4OC)c3)cc2C(F)(F)F)CC1 the remaining binding was 58% (JAK2 JH1; binding, competition with immobilised ligand; 1 µM).
With CNS(=O)(=O)Nc1nccc(Cc2c(C)c3ccc(Oc4ncccc4F)cc3oc2=O)c1F the remaining binding was 92% (JAK2 JH1; binding, competition with immobilised ligand; 10 µM).
CCC(CC)C(=O)/C=C/C(=O)N1CCc2cc(Nc3ncc(C)c(-c4cnn(C(C)C)c4)n3)ccc2C1 has a selectivity ratio of greater than 3.11 (JAK2; ADP-Glo kinase; relative to: IC50 JAK3 over IC50 JAK2).
CN1CCN(Cc2ccc(NC(=O)c3cccc(C#Cc4cnc(N)c5ncccc45)c3)cc2C(F)(F)F)CC1 gave a remaining binding of 21% (JAK2 JH1; cell-free assay, competition with immobilised ligand; 50 nM).
With Cc1ccc(-c2c(/C=C(\C#N)C(=O)NC(C)C)n(CCCO)c3ncnc(N)c23)cc1 the remaining binding was 85% (JAK2 JH1; cell-free assay, competition with immobilised ligand; 1 µM).
The inhibition of Cc1cnc2nc1Nc1cc(F)cc(c1)COC/C=C/COCc1cc(ccc1OCCN1CCCC1)N2 is reported as 95.9% and 97.2% and 96.9% (JAK2; inhibitor, Z'-LYTE kinase; 333.3 nM).
With Cc1cnc(Nc2ccc3c(c2)CCN(C(=O)/C=C/C(=O)C(C)C)C3)nc1-c1cnn(C(C)C)c1 the selectivity ratio was 0.63 (JAK2; ADP-Glo kinase; relative to: IC50 JAK1 over IC50 JAK2).
The remaining binding of C=CC(=O)N1CCc2ccc(-n3c(=O)ccc4cnc5ccc(-c6cnn(C)c6)cc5c43)cc21 is reported as 100% (JAK2; KINOMEscan; 1 µM; relative to: DMSO control).
For Nc1ncc2c(n1)-c1c([nH]c3ccc(C4=CCOCC4)cc13)CCC2, the remaining binding was 42% (JAK2 JH1; binding, competition with immobilised ligand; 1 µM).
Cc1cnc(Nc2ccc3c(c2)CCN(C(=O)/C=C/C(=O)C2CCCC2)C3)nc1-c1cnn(C(C)C)c1 has a selectivity ratio of 1.6 (JAK2; ADP-Glo kinase; relative to: IC50 JAK1 over IC50 JAK2).
Cc1cnc2nc1Nc1cccc(c1)COCCCCOCc1cc(ccc1OCCN1CCCC1)N2 has an inhibition of 0.92% and -2.2% and -3.73% (JAK2; inhibitor, Z'-LYTE kinase; 4.572 nM).
With C=CC(=O)N1CCCC(n2c(=O)c3ncccc3n(Cc3ccc(Oc4ccccc4)cc3)c2=O)C1 (stereo not shown) the remaining binding was 73% (JAK2 JH1; cell-free assay, competition with immobilised ligand; 1 µM).

For quick reference, copied from above:
Cc1cnc(Nc2ccc3c(c2)CCN(C(=O)/C=C/C(=O)C2CCC(C)CC2)C3)nc1-c1cnn(C(C)C)c1 (stereo not shown) gave a selectivity ratio of greater than 14.6 (JAK2; ADP-Glo kinase; relative to: IC50 JAK1 over IC50 JAK2).
Cc1cnc2nc1Nc1cccc(c1)COC/C=C/COCc1cc(ccc1OCCN1CCOCC1)N2 gave an inhibition of 100% and 102% and 107% (JAK2; inhibitor, Z'-LYTE kinase; 1000 nM).
For CC(C)=CC1OC(C)(C)C2C=C3C(=O)C(Cl)=CC(O)C3C3C(O)C4OC4C(=O)C132 (stereo not shown), the remaining binding was 43% (JAK2 JH1; cell-free assay, competition with immobilised ligand; 10 µM).
CN1CCN(Cc2ccc(NC(=O)c3cccc(C#Cc4cnc(N)c5ncccc45)c3)cc2C(F)(F)F)CC1 gave a remaining binding of 21% (JAK2 JH1; cell-free assay, competition with immobilised ligand; 50 nM).
